Measurements from different studies.
Numbered parts are unrelated; each lists some results of a single study. Positions count from the first letter of the parent shown.

Study 1
Target: TAR DNA-binding protein 43, full length, His tag (TARDBP, Homo sapiens, UniProt Q13148, residues 1-414)
Method: RNA Bind-n-Seq
Form: RNA
Sample: in vitro
Concentration: 20 nM
Notes: 6-mer, flanks averaged, single round
With: 150 mM KCl
Baseline: input library
Reading: higher = stronger binding
Quantity: 6-mer enrichment (R)
Oligonucleotide = AGCCGC; value = 0.832
Oligonucleotide = GCGGGA; value = 4.83
Oligonucleotide = GAUGUG; value = 1.54
Oligonucleotide = CGCACG; value = 0.956
Oligonucleotide = GCAUCC; value = 0.673
Oligonucleotide = UUUGAU; value = 0.635
Oligonucleotide = AUACCG; value = 0.657
Oligonucleotide = CCAGGG; value = 2.21

Study 2
Target: Ras GTPase-activating protein-binding protein 1, C-terminal RGG region (G3BP1, Homo sapiens, UniProt Q13283)
Chain of UniProt Q13283 (whole entry, looked up): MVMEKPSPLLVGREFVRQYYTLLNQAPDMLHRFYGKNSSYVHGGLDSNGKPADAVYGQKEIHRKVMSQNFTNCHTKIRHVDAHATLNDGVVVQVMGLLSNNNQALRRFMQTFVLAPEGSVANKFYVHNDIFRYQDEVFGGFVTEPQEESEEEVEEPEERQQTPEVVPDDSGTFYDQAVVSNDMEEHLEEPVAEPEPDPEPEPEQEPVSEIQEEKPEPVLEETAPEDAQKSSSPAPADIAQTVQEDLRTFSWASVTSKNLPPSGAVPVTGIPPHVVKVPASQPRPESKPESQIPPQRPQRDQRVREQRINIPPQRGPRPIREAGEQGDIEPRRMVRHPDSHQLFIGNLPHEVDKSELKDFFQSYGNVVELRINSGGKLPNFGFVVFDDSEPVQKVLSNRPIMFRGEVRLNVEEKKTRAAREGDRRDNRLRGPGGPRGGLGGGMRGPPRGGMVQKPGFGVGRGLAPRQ
Method: RNA Bind-n-Seq
Form: RNA
Sample: in vitro
Concentration: 1 µM
Notes: whole 134-nt RNA, ends assumed
With: 150 mM KCl
Baseline: input library
Reading: higher = stronger binding
Quantity: log2 enrichment
Constant ends, left off below: GGGAGUUCUACAGUCCGACGAUC … UGGAAUUCUCGGGUGUCAAGG
Oligonucleotide = ACCAUGCAGGUGGGCAAAAUUGGGAAGUGGGGCAAGGGGGGGAUAGGGAGGGGGGUAACACUUUGGGAACAGGUGGUCCCAGGUCGUUUC; value = -1.15
Oligonucleotide = CACAGACAACACGCACCCACACAGACACAGAGGGAAGGGGUUGGGAUGGGGACAGGGUGCACAGCAGGGCUGGGUAGGACCCCAGCCCCU; value = -1.13
Oligonucleotide = UGUGCUACACAUCGUAUGUACCGAAUCGGGUUUUUUUGGGUUUUUUUGGGGUUUUUUUGGGGAAAGUAUUAUGUUACGCCGUUCGGAUCU; value = -0.564
Oligonucleotide = CCUGUGCUACACAUCGUAUGUACCGAAUCGGGCCCCCCCGGGCCCCCCCGGCCCCCCCGGAAAGUAUUAUGUUACGCCGUUCGGAUCUGC; value = -1.4
Oligonucleotide = UCCUGUGCUACACAUCGUAUGUACCGAAUCGGGUUUGGGAAAAAAAGGGAAAAAAAGGGAAAGUAUUAUGUUACGCCGUUCGGAUCUGCA; value = -0.129
Oligonucleotide = CAAGUCCUGUGCUACACAUCGUAUGUACCGAAUCGGGAGGGAGGGUUUUUUUGGGAAAGUAUUAUGUUACGCCGUUCGGAUCUGCACUUC; value = 1.18
Oligonucleotide = GCAGGAAGUAAAAACAAAUUGAAAUGCUUCGGAUAGUGGCAGGGGUGGGGGUUGCUAAGGAAAGGGUGGGAUGGGAGUGGGUAAAGAGUU; value = 1.86
Oligonucleotide = UAACGUUAGAGGAGGAUCUGAUGGAUAUGGCAGUGGACGUGGAUUUGGGGAUGGCUAUAAUGGGUAUGGAGGAGGACCUGGAGGUGGCAA; value = -0.752

Study 3
Target: Sal-like protein 4, full length isoform B (SALL4, Homo sapiens, UniProt Q9UJQ4-2, residues 1-616)
Method: universal PBM
Form: double-stranded DNA, one strand shown
Sample: in vitro
Concentration: not given
Notes: 8-mer, flanks averaged, mean of replicates
Reading: higher = stronger binding
Quantity: E-score
Oligonucleotide = ATTAGCGC; value = 0.0607
Oligonucleotide = ATCGCCAC; value = -0.0126
Oligonucleotide = CCATGTTA; value = 0.163
Oligonucleotide = AAGAGGCG; value = -0.122
Oligonucleotide = AATCTAGC; value = -0.0547
Oligonucleotide = ATGCCCGG; value = -0.221
Oligonucleotide = CGATCCAG; value = -0.315
Oligonucleotide = CCCCCCGC; value = -0.184

Other studies, line by line
Parent: PafA, mature enzyme, eGFP fusion (Elizabethkingia meningoseptica, UniProt Q9KJX5); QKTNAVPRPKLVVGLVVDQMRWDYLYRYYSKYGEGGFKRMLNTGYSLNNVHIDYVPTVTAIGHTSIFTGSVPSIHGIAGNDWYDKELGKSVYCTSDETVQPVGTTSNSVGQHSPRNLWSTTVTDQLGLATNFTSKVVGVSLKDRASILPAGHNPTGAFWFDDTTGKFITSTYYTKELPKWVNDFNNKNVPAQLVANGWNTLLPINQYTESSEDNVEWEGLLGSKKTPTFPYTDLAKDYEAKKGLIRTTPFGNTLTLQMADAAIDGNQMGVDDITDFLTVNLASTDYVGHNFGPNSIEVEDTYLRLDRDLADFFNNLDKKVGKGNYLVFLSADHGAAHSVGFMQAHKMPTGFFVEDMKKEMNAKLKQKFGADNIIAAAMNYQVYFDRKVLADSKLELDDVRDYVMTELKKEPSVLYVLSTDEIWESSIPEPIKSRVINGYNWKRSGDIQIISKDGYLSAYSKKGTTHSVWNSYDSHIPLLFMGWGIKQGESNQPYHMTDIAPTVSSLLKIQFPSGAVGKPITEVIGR
Substitution = S467V; target = vanadate, free oxyanion; assay = microfluidic competitive inhibition; test system = in vitro, cell-free expressed; setting = not given, derived from inhibition constants, unchanged parent 676 nM; how to read = lower = stronger binding; quantity = oxyanion analog dissociation constant; value = 2.73 µM
